Results gathered from unrelated publications.
Compare with care: the assays were run in different laboratories.
Effect on: metabolic stability

| SMILES | species | matrix | tested at | pH | measurement | value |
| --- | --- | --- | --- | --- | --- | --- |
| CCC/C(=C\C1=C(C(F)(F)F)C(=O)c2ccccc2C1=O)C(=O)N(CC)CC | mouse | liver microsomes | 1 µM | pH 7.4 | scaled CLint | 142 mL/min/kg |
| CCN(CC)CC#CCNc1ccnc2cc(Cl)ccc12 | CD-1 mouse | liver microsomes | 1 µM | pH 7.4 | scaled CLint | 2740 mL/min/kg |
| CCC(CC)CNC(=N)NC(=N)NCCCCCCNC(=N)NC(=N)NCC(CC)CC | mouse | hepatocytes | 1 µM |  | scaled CLint | 126 mL/min/kg |
| CCc1nc(N)nc(N)c1C#CC(C)c1cc(-c2cc(C)nc(C)c2)ccc1OC (centres unmarked) | male CD-1 mouse | liver microsomes | 0.5 µg/mL | pH 7.4 | microsomal CLint | ~173 µL/min/mg |
| CCC/C(=C\C1=C(F)C(=O)c2ccccc2C1=O)C(=O)N(CC)CC | mouse | liver microsomes | 1 µM | pH 7.4 | scaled CLint | 24.5 mL/min/kg |
| NC(=O)c1c(F)ccc(OCc2nc3cc(Cl)cnc3s2)c1F | mouse | hepatocytes | 10 µM |  | hepatocyte CLint | 9.51 µL/min/10⁶ cells |
| C=C(C)C(=O)Nc1ccc(-c2c(-c3ccc(Oc4nccc(C)n4)cc3)c3c(N)ncnc3n2C)cc1 | mouse | hepatocytes |  |  | hepatocyte CLint | 21 µL/min/10⁶ cells |
| CCNCC#CCNc1ccnc2cc(Cl)ccc12 | CD-1 mouse | liver microsomes | 1 µM | pH 7.4 | scaled CLint | 273 mL/min/kg |

Some of these lines once more:
| SMILES | species | matrix | tested at | pH | measurement | value |
| --- | --- | --- | --- | --- | --- | --- |
| C=C(C)C(=O)Nc1ccc(-c2c(-c3ccc(Oc4nccc(C)n4)cc3)c3c(N)ncnc3n2C)cc1 | mouse | hepatocytes |  |  | hepatocyte CLint | 21 µL/min/10⁶ cells |
